# Measured values pooled from the literature.
# ± gives the spread as reported.
# Organism: SARS-CoV-2
Structure (SMILES),assay,system,conditions,how to read,endpoint,result
Cc1cccc(C)c1NC(=O)CN1CCN(CCCC(c2ccc(F)cc2)c2ccc(F)cc2)CC1,"viral replication, GFP plate reader screen",,cell-based,,EC50,9.55 µM
Cc1ccccc1CN1C(=O)c2ccccc2Sc2ccc(C(=O)NCCCN3CCOCC3)cc21,cytopathic effect,USA_WA1/2020,"round 1, 5-point",,efficacy,68.7%
Cc1ccc(Nc2nccc(N(C)c3ccc4c(C)n(C)nc4c3)n2)cc1S(N)(=O)=O,,,"concentration not given, Paris laboratory",,viral replication inhibition,inactive
Nc1ncnc2c1ncn2C1CCCO1 (centres unmarked),viral replication,Huh-7,,,IC50,> 2 µM
NCCCC[C@H](N[C@@H](CCc1ccccc1)C(=O)O)C(=O)N1CCC[C@H]1C(=O)O,,Vero E6,"concentration not given, NYC laboratory",,viral replication inhibition,inactive
CC1CCN(CCCC(=O)c2ccc(F)cc2)CC1,viral replication,A549 expressing ACE2,inactive set pIC50 4,,IC50,> 10 µM
O=C(/C=C/c1ccc(O)c(O)c1/C=C/c1ccc(O)c(O)c1)O[C@H](Cc1ccc(O)c(O)c1)C(=O)O,viral replication,Vero E6,0.7812 µM,,CPE inhibition,0%
COc1ccc2c(Sc3ccccc3)c(C(=O)NCCCN3CCCCC3)[nH]c2c1,"cytopathic effect, cell-based CPE",USA_WA1/2020,,,AC50,14.1 µM
CC(C)(C)[C@H](NC(=O)C(F)(F)F)C(=O)N1C[C@H]2[C@@H]([C@H]1C(=O)N[C@H](C#N)C[C@@H]1CCNC1=O)C2(C)C,"viral replication, infectious virus",Vero E6,0.3333 µM,,inhibition,108%
Cc1nn(-c2ccc(Cl)cc2)c2c1C(c1ccc(Cl)cc1)C(C#N)=C(N)O2 (centres unmarked),viral replication,Vero,10 µM,,viral reduction,8.49%
c1ccc2c(c1)Sc1ccccc1N2CC1CN2CCC1CC2 (centres unmarked),"viral replication, high-content imaging screen",,cell-based,,EC50,> 100 µM
CCC(CC)COC(=O)[C@H](C)N[P@](=O)(OC[C@H]1O[C@@](C#N)(c2ccc3c(N)ncnn23)[C@H](O)[C@@H]1O)Oc1ccccc1,viral replication,"293T-ACE2, USA-WA1/2020",,,EC90,0.0347 µM
CCC(C)n1ncn(-c2ccc(N3CCN(c4ccc(OC[C@H]5CO[C@](Cn6cncn6)(c6ccc(F)cc6F)O5)cc4)CC3)cc2)c1=O (some centres unmarked),"viral replication, high-content imaging screen",,cell-based,,EC50,> 100 µM
CNCC(O)c1ccc(OC(=O)C(C)(C)C)c(OC(=O)C(C)(C)C)c1 (centres unmarked),viral replication,Huh-7,,,IC50,> 2 µM
CC(C(O)c1ccc(O)cc1)N1CCC(Cc2ccccc2)CC1 (centres unmarked),,,"concentration not given, Paris laboratory",,viral replication inhibition,inactive
CC(C)(C)[C@H](NC(=O)C(F)(F)F)C(=O)N1C[C@H]2[C@@H]([C@H]1C(=O)N[C@H](C#N)C[C@@H]1CCNC1=O)C2(C)C,viral replication,Omicron BA.1 strain,24 h,,EC90,0.0376 ± 0.0172 µM
COc1ccc2c(c1)N(C[C@H](C)CN(C)C)c1ccccc1S2,"viral replication, high-content imaging screen",BetaCov/Belgium/GHB-03021/2020,cell-based,,EC50,> 50.1 µM
COc1cc2c(cc1OC)CN(CCc1ccc(NC(=O)c3cc(OC)c(OC)cc3NC(=O)c3cnc4ccccc4c3)cc1)CC2,viral replication,Vero E6,inactive set pIC50 4,,IC50,> 10 µM
Clc1ccc(C(OCCN2CCCCC2)c2ccccc2)cc1 (centres unmarked),,,"concentration not given, Paris laboratory",,viral replication inhibition,inactive
CCN(CC)CCNC(=O)c1ccc(-c2nc(CN3CCc4ccccc43)c(C)o2)cc1,cytopathic effect,USA_WA1/2020,"round 2, 5-point",,maximum response,98.1%
COc1ccc2[nH]c([S+]([O-])Cc3ncc(C)c(OC)c3C)nc2c1 (centres unmarked),viral replication,Huh-7,,,IC50,> 2 µM
Cc1ccc(NS(=O)(=O)c2cccc(C(=O)NC3CCN(c4ncnc5[nH]cnc45)CC3)c2)cc1,,"A549-ACE2, Wuhan-Hu-1",0.823 µM,reference: untreated,relative infection,86.6%
O=C(O[C@@H]1Cc2c(O)cc(O)cc2O[C@@H]1c1cc(O)c(O)c(O)c1)c1cc(O)c(O)c(O)c1,viral replication,Vero E6,6.25 µM,,CPE inhibition,0%
CN1CC[C@@]23CCCC[C@@H]2[C@@H]1Cc1ccc(O)cc13,viral replication,A549 expressing ACE2,inactive set pIC50 4,,IC50,> 10 µM
CO[C@@H]1CC/C=C/c2cccc(c2)[C@@H](CCNC(=O)OC(C)(C)C)OC(=O)[C@@H]2CCCN(N2)C(=O)[C@H](C)NC(=O)[C@H](C(C)C)NC(=O)[C@@H]1C,,Vero E6,"concentration not given, NYC laboratory",,viral replication inhibition,inactive
CCCCCCCC(=O)N[C@H](CN1CCCC1)[C@H](O)c1ccc2c(c1)OCCO2,viral replication,Huh-7,,,IC50,> 2 µM
COc1cc2c(cc1OCC1CC1)NC(=O)C21CCN(c2cc(NC3CC3)ncn2)CC1,"cytopathic effect, cell-based CPE",USA_WA1/2020,,,AC50,25.1 µM
Cc1nn(-c2ccc(Cl)cc2)c2c1C(c1ccc(I)cc1)C(C#N)=C(N)O2 (centres unmarked),,Vero,1 µM,,viral titre,978000 IU/mL
CC[C@H](NC(=O)[C@H](CS(=O)(=O)CC1CC1)N[C@@H](c1ccc(F)cc1)C(F)(F)F)C(=O)C(=O)NC1CC1,"viral replication, inhibitor","Vero E6, USA-WA1/2020",24 h,,EC90,1.04 µM
COc1ccc2c(c1)CCC(c1ccccc1)=C2c1ccc(OCCN2CCCC2)cc1,"viral replication, high-content imaging screen",,cell-based,,EC50,> 100 µM
CCC1CCCCN1CCCNC(=O)c1sc2nc(C)cc(C)c2c1-n1cccc1 (centres unmarked),cytopathic effect,USA_WA1/2020,"retest, 8-point, duplicates",,efficacy,35.6%
COc1ccc(C[C@@H]2c3cc(Oc4cc(C[C@@H]5c6cc(O)c(OC)cc6CCN5C)ccc4O)c(OC)cc3CCN2C)cc1,viral cytopathic effect,Vero E6,12.5 µM,,mean inhibition,0%
Cc1ccc2nc(C3CCCN(Cc4cccc(-c5cccnc5)c4)C3)[nH]c(=O)c2c1 (centres unmarked),cytopathic effect,USA_WA1/2020,"round 2, 5-point",,maximum response,74.9%
CN1CCN(CCc2ccc(Cl)c(Cl)c2)CC1,viral replication,Vero E6,inactive set pIC50 4,,IC50,> 10 µM
Cc1nn(-c2ccc(Cl)cc2)c2c1C(c1ccc(-c3ccccc3)cc1)C(C#N)=C(N)O2 (centres unmarked),"RT-qPCR, measured: viral RNA",Vero,10 µM,higher means less virus,Ct value,26.1 cycles
Cc1c(C)c(NCC(=O)N(C)C2CCN(Cc3ccc(C(N)=O)cc3)CC2)c(C)c(C)c1N,viral replication,Huh-7,,,IC50,> 2 µM
Cc1c(Cl)cccc1-c1ccc(CNCCSc2nnnn2-c2ccccc2)o1,cytopathic effect,USA_WA1/2020,"round 1, 5-point",,maximum response,37.6%
Cc1cc(SCc2sc(-c3ccc(C(F)(F)F)c(F)c3)nc2C)ccc1OCC(=O)O,viral replication,Huh-7,,,IC50,> 2 µM
COc1ccc2cc1Oc1ccc(cc1)C[C@H]1c3cc(c(OC)cc3CCN1C)Oc1c(OC)c(OC)cc3c1[C@H](C2)N(C)CC3,viral replication,"293T-ACE2, USA-WA1/2020",,,EC90,1.87 µM
[N-]=[N+]=N[C@]1(CO)O[C@@H](n2ccc(N)nc2=O)[C@@H](F)[C@@H]1O,imaging,"Calu-3, Omicron BA.1",concentration not given,,antiviral activity,inactive
C=CCN1CC[C@@]2(C)c3cc(O)ccc3C[C@@H]1[C@@H]2C,viral replication,A549 expressing ACE2,inactive set pIC50 4,,IC50,> 10 µM
Cc1nc2ccccn2c(=O)c1CCN1CCC(=C(c2ccc(F)cc2)c2ccc(F)cc2)CC1,"viral replication, GFP plate reader screen",,cell-based,,EC50,7.59 µM
CN(CCc1ccc(Cl)c(Cl)c1)CCN1CCCC1,"viral replication, anti-NP immunostaining",Vero E6,,,IC50,5.13 µM
CN1CCC(COc2cnc(-c3cccc(Cn4nc(-c5cccc(C#N)c5)ccc4=O)c3)nc2)CC1,"viral replication, GFP plate reader screen",BetaCov/Belgium/GHB-03021/2020,cell-based,,EC50,> 100 µM
Cc1nn(-c2ccc(Cl)cc2)c2c1C(c1ccc(F)cc1F)C(C#N)=C(N)O2 (centres unmarked),,Vero C1008,10 µM,reference: positive control,viral titre log reduction,0.288 log10
CC(C)=CCc1c(O)ccc(C(=O)/C=C/c2ccc(O)cc2)c1O,viral replication,Vero E6,100 µM,reference: mean of replicates,CPE inhibition,93.3%
CCC(CC)COC(=O)[C@H](C)N[P@](=O)(OC[C@H]1O[C@@](C#N)(c2ccc3c(N)ncnn23)[C@H](O)[C@@H]1O)Oc1ccccc1,"RT-qPCR, measured: viral RNA",Vero,1 µM,higher means less virus,Ct value,26.1 cycles
COc1ccc(Nc2cc(C(=O)NCCCN3CCN(c4ccc(OC)cc4)CC3)c3ccccc3n2)cc1,"cytopathic effect, cell-based CPE",USA_WA1/2020,"round 2, 5-point dilution",,AC50,12.6 µM
COc1ccc(CCN(C)CCCC(C#N)(c2ccc(OC)c(OC)c2)C(C)C)cc1OC (centres unmarked),,,"concentration not given, Paris laboratory",,viral replication inhibition,inactive
Cc1nn(-c2ccc(Cl)cc2)c2c1C(c1ccc(Br)cc1)C(C#N)=C(N)O2 (centres unmarked),"RT-qPCR, measured: viral RNA",Vero,10 µM,higher means less virus,Ct value,24.2 cycles
O=C1NCN(c2ccccc2)C12CCN(CCCC(c1ccc(F)cc1)c1ccc(F)cc1)CC2,"viral replication, high-content imaging screen",,cell-based,,EC50,> 100 µM
Cc1nn(-c2ccc(Cl)cc2)c2c1C(c1ccc(Cl)cc1Cl)C(C#N)=C(N)O2 (centres unmarked),,Vero C1008,10 µM,reference: positive control,viral titre log reduction,0.485 log10
COc1ccc2c(c1)[C@]13CCCC[C@@H]1[C@H](C2)N(C)CC3,,Vero E6,"concentration not given, NYC laboratory",,viral replication inhibition,inactive

# For quick reference, copied from above:
Structure (SMILES),assay,system,conditions,how to read,endpoint,result
Cc1nc2ccccn2c(=O)c1CCN1CCC(=C(c2ccc(F)cc2)c2ccc(F)cc2)CC1,"viral replication, GFP plate reader screen",,cell-based,,EC50,7.59 µM
CCC1CCCCN1CCCNC(=O)c1sc2nc(C)cc(C)c2c1-n1cccc1 (centres unmarked),cytopathic effect,USA_WA1/2020,"retest, 8-point, duplicates",,efficacy,35.6%
[N-]=[N+]=N[C@]1(CO)O[C@@H](n2ccc(N)nc2=O)[C@@H](F)[C@@H]1O,imaging,"Calu-3, Omicron BA.1",concentration not given,,antiviral activity,inactive
COc1ccc2c(c1)CCC(c1ccccc1)=C2c1ccc(OCCN2CCCC2)cc1,"viral replication, high-content imaging screen",,cell-based,,EC50,> 100 µM
COc1ccc2c(c1)[C@]13CCCC[C@@H]1[C@H](C2)N(C)CC3,,Vero E6,"concentration not given, NYC laboratory",,viral replication inhibition,inactive
